Measured values pooled from the literature.
Values joined by “and” are separate records of one study, mostly repeats; a detail may differ. ≈ marks a conversion by molar mass, not a printed value.

| Compound | tested on | test | test system | conditions | scale | measurement | result |
| --- | --- | --- | --- | --- | --- | --- | --- |
| COc1c(NC(=O)c2ccc(NC(=O)c3ccc(NC(=O)[C@H](Cc4c[nH]nn4)NC(=O)c4ccc(NC(=O)/C(C)=C/c5ccc(O)cc5)cc4)cc3)cc2)ccc(C(=O)O)c1O | Salmonella Typhimurium | broth microdilution | TA100 |  |  | MIC | 63 ng/mL (≈ 75.1 nM) |
| Cc1c(CN(C)C(=O)/C=C/c2cnc3c(c2)CC(N)C(=O)N3)oc2ccccc12 (stereo not shown) | Klebsiella pneumoniae | broth microdilution | AR-0098 |  |  | MIC | 32000 ng/mL (≈ 82000 nM) |
| COc1c(NC(=O)c2ccc(NC(=O)[C@H](Cc3c[nH]nn3)NC(=O)c3ccc(NC(=O)/C(C)=C/c4ccc(O)cc4)cc3)cc2)ccc(C(=O)Nc2ccc(C(=O)O)c(O)c2)c1O | Salmonella enterica serovar Kentucky | broth microdilution | ciprofloxacin-sensitive |  |  | MIC | 125 ng/mL (≈ 146 nM) |
| CC[C@H]1OC(=O)[C@H](C)[C@@H](OC(=O)Cc2ccc(N)cc2)[C@H](C)[C@@H](O[C@@H]2O[C@H](C)C[C@H](N(C)C)[C@H]2O)[C@](C)(OC)C[C@@H](C)C(=O)[C@H](C)[C@@H](O)[C@]1(C)O | Cryptococcus neoformans | microbial growth | ATCC208821 |  |  | MIC | > 32000 ng/mL |
| O=[N+]([O-])c1cc(Cl)c2cccnc2c1O | Streptococcus pneumoniae | microbial growth, broth dilution | ATCC49619 |  |  | MIC | 8000 ng/mL (≈ 35600 nM) |
| CCCC/C=C/C(=O)N[C@@H](Cc1cc(F)cc(F)c1)C(=O)N[C@@H]1C(=O)N2CCC[C@H]2C(=O)N2CCCC[C@H]2C(=O)N[C@@H](C)C(=O)N2CCC[C@H]2C(=O)O[C@H]1C | Streptococcus pneumoniae | microbial growth, broth dilution |  |  |  | MIC | < 0.02 ng/mL |
| COc1c(NC(=O)c2ccc(NC(=O)c3ccc(NC(=O)[C@H](Cc4c[nH]nn4)NC(=O)c4ccc(NC(=O)/C(C)=C/c5ccc(O)cc5)cc4)cc3)cc2O)ccc(C(=O)O)c1O | Salmonella enterica serovar Kentucky | broth microdilution | ciprofloxacin-sensitive |  |  | MIC | 250 ng/mL (≈ 292 nM) |
| C=C[C@]1(C)C[C@@H](OC(=O)CSc2ccc(NC(=O)c3ccco3)cc2)[C@]2(C)[C@H](C)CC[C@]3(CCC(=O)[C@H]32)[C@@H](C)[C@@H]1O | Mycoplasma gallisepticum |  | chicken lung isolates | 5 mg/kg to chickens |  | MIC | 1.95 ng/mL (≈ 3.37 nM) |
| COc1nc(C(=O)Nc2ccc(C(=O)O)nc2OC)ccc1NC(=O)c1ccc(NC(=O)[C@H](Cc2c[nH]nn2)NC(=O)c2ccc(NC(=O)/C(C)=C/c3ccc(O)cc3)cc2)cc1 | Salmonella enterica serovar Kentucky | broth microdilution | ciprofloxacin-resistant |  |  | MIC | 16000 ng/mL (≈ 18700 nM) |
| CC[C@H]1OC(=O)[C@H](C)[C@@H](O[C@H]2C[C@@](C)(OC)[C@@H](O)[C@H](C)O2)[C@H](C)[C@@H](O[C@@H]2O[C@H](C)C[C@H](N(C)C)[C@H]2O)[C@](C)(OC)C[C@@H](C)C(=O)[C@H](C)[C@@H](O)[C@]1(C)O | Cryptococcus neoformans | microbial growth | ATCC208821 |  |  | MIC | > 32000 ng/mL |
| Cc1ncsc1-c1ccc(C(C)NC(=O)C2CC(O)CN2C(=O)C(NC(=O)CCCCCCCCCCN2CCCC(Nc3ncc(Cl)c(Nc4ccccc4S(=O)(=O)C(C)C)n3)C2)C(C)(C)C)cc1 (stereo not shown) | 22Rv1 | RNA-seq, refers to: ZSCAN20 mRNA |  | concentration not given | reference: DMSO | log2 fold change | -1.88 |
| CNS(=O)(=O)Nc1nccc(Cc2c(C)c3ccc(Oc4ncccc4F)cc3oc2=O)c1F | D1.1 | cell viability, CellTiter-Glo |  | 7 days |  | IC50 | > 1000 nM |
| C/C(=C\c1ccc(O)cc1)C(=O)Nc1ccc(C(=O)N[C@@H](Cc2c[nH]nn2)C(=O)Nc2ccc(C(=O)Nc3ccc(C(=O)Nc4ccc(C(=O)O)c(O)c4)c(O)c3)cc2)cc1 | Salmonella Typhimurium | broth microdilution | TA100 |  |  | MIC | 16 ng/mL (≈ 19.4 nM) |
| C=C(NC(=O)c1csc(-c2nc3c(cc2O)-c2nc(cs2)C(=O)NC(C(C)O)C(=O)NC(=C(C)OC)c2nc(cs2)C(=O)NC2c4nc(cs4)C(=O)NC(COC(=O)c4c5c6c(cccc6n4O)COC(=O)C(OC4CC(C)(O)C(N(C)C)C(C)O4)C2OC5)c2nc-3cs2)n1)C(N)=O (stereo not shown) | Staphylococcus epidermidis |  | MRSE-37, methicillin-resistant |  |  | MIC | 7.8 ng/mL (≈ 5.43 nM) |
| CC[C@H]1OC(=O)[C@H](C)[C@@H](OC(=O)Cc2cccc3ccccc23)[C@H](C)[C@@H](O[C@@H]2O[C@H](C)C[C@H](N(C)C)[C@H]2O)[C@](C)(OC)C[C@@H](C)C(=O)[C@H](C)[C@@H](O)[C@]1(C)O | Cryptococcus neoformans | microbial growth | ATCC208821 |  |  | MIC | > 32000 ng/mL |
| COc1cc(C(=O)Nc2ccc(C(=O)O)c(O)c2OC)ccc1NC(=O)c1ccc(NC(=O)[C@H](Cc2c[nH]nn2)NC(=O)c2ccc(NC(=O)/C(C)=C/c3ccc(O)cc3)cc2)cc1 | Salmonella Typhimurium | broth microdilution | TA100 |  |  | MIC | 63 ng/mL (≈ 72.5 nM) |
| CC[C@H]1OC(=O)[C@H](C)[C@@H](OC(=O)Cc2cccc([N+](=O)[O-])c2)[C@H](C)[C@@H](O[C@@H]2O[C@H](C)C[C@H](N(C)C)[C@H]2O)[C@](C)(OC)C[C@@H](C)C(=O)[C@H](C)[C@@H](O)[C@]1(C)O | Cryptococcus neoformans | microbial growth | ATCC208821 |  |  | MIC | > 32000 ng/mL |
| COc1cc(C(=O)O)ccc1NC(=O)c1ccc(NC(=O)c2ccc(NC(=O)[C@H](Cc3c[nH]nn3)NC(=O)c3ccc(NC(=O)/C(C)=C/c4ccc(O)cc4)cc3)cc2)c(OC)c1 | Salmonella enterica serovar Kentucky | broth microdilution | ciprofloxacin-sensitive |  |  | MIC | 500 ng/mL (≈ 586 nM) |
| CC[C@H]1OC(=O)[C@H](C)[C@@H](OC(=O)Cc2ccc(C(F)(F)F)cc2)[C@H](C)[C@@H](O[C@@H]2O[C@H](C)C[C@H](N(C)C)[C@H]2O)[C@](C)(OC)C[C@@H](C)C(=O)[C@H](C)[C@@H](O)[C@]1(C)O | Cryptococcus neoformans | microbial growth | ATCC208821 |  |  | MIC | > 32000 ng/mL |
| COC(=O)c1c(NC(=O)Cn2cnc([N+](=O)[O-])n2)sc2c1CCC(C)C2 (stereo not shown) | Trypanosoma cruzi | reporter mRNA translation, inhibitor, refers to: Renilla luciferase mRNA | cell-free extract | concentration not given, test 1 | reference: positive over negative control | translation activity | 108% and 104% |
| CC[C@H]1OC(=O)[C@H](C)[C@@H](OC(=O)Cc2cccc(Cl)c2)[C@H](C)[C@@H](O[C@@H]2O[C@H](C)C[C@H](N(C)C)[C@H]2O)[C@](C)(OC)C[C@@H](C)C(=O)[C@H](C)[C@@H](O)[C@]1(C)O | Cryptococcus neoformans | microbial growth | ATCC208821 |  |  | MIC | > 32000 ng/mL |
| CCCC/C=C/C(=O)N[C@@H](Cc1cc(F)cc(F)c1)C(=O)N[C@@H]1C(=O)N2CCC[C@H]2C(=O)N2CC[C@H](C)C[C@H]2C(=O)N[C@@H](C)C(=O)N2CCC[C@H]2C(=O)O[C@H]1C | Streptococcus pneumoniae | microbial growth, broth dilution |  |  |  | MIC | < 0.02 ng/mL |
| Cc1ccc(Nc2nc(NCc3ccco3)c3ccccc3n2)cc1 | Trypanosoma cruzi | reporter mRNA translation, inhibitor, refers to: Renilla luciferase mRNA | cell-free extract | concentration not given, test 3 | reference: positive over negative control | translation activity | 95.2% |
| CC[C@H]1OC(=O)[C@H](C)[C@@H](OC(=O)Cc2ccc3c(c2)OCO3)[C@H](C)[C@@H](O[C@@H]2O[C@H](C)C[C@H](N(C)C)[C@H]2O)[C@](C)(OC)C[C@@H](C)C(=O)[C@H](C)[C@@H](O)[C@]1(C)O | Cryptococcus neoformans | microbial growth | ATCC208821 |  |  | MIC | > 32000 ng/mL |
| CCCC/C=C/C(=O)N[C@@H](Cc1cc(F)cc(F)c1)C(=O)N[C@@H]1C(=O)N2CCC[C@H]2C(=O)N(C)[C@@H](C)C(=O)N[C@@H](C)C(=O)N2CCC[C@H]2C(=O)O[C@H]1C | Streptococcus pneumoniae | microbial growth, broth dilution |  |  |  | MIC | 3 ng/mL (≈ 4.03 nM) |

Repeated from above:
| Compound | tested on | test | test system | conditions | scale | measurement | result |
| --- | --- | --- | --- | --- | --- | --- | --- |
| COC(=O)c1c(NC(=O)Cn2cnc([N+](=O)[O-])n2)sc2c1CCC(C)C2 (stereo not shown) | Trypanosoma cruzi | reporter mRNA translation, inhibitor, refers to: Renilla luciferase mRNA | cell-free extract | concentration not given, test 1 | reference: positive over negative control | translation activity | 108% and 104% |
| CCCC/C=C/C(=O)N[C@@H](Cc1cc(F)cc(F)c1)C(=O)N[C@@H]1C(=O)N2CCC[C@H]2C(=O)N2CCCC[C@H]2C(=O)N[C@@H](C)C(=O)N2CCC[C@H]2C(=O)O[C@H]1C | Streptococcus pneumoniae | microbial growth, broth dilution |  |  |  | MIC | < 0.02 ng/mL |
| CC[C@H]1OC(=O)[C@H](C)[C@@H](OC(=O)Cc2ccc(C(F)(F)F)cc2)[C@H](C)[C@@H](O[C@@H]2O[C@H](C)C[C@H](N(C)C)[C@H]2O)[C@](C)(OC)C[C@@H](C)C(=O)[C@H](C)[C@@H](O)[C@]1(C)O | Cryptococcus neoformans | microbial growth | ATCC208821 |  |  | MIC | > 32000 ng/mL |
